Measured values gathered from unrelated publications.
Lines come from different studies, so protocols differ. ± gives the spread as reported.
ABL2 SH2 domain: Tyrosine-protein kinase ABL2, SH2 domain (ABL2, Homo sapiens, UniProt P42684)
UniProt P42684, sequence (whole entry, looked up): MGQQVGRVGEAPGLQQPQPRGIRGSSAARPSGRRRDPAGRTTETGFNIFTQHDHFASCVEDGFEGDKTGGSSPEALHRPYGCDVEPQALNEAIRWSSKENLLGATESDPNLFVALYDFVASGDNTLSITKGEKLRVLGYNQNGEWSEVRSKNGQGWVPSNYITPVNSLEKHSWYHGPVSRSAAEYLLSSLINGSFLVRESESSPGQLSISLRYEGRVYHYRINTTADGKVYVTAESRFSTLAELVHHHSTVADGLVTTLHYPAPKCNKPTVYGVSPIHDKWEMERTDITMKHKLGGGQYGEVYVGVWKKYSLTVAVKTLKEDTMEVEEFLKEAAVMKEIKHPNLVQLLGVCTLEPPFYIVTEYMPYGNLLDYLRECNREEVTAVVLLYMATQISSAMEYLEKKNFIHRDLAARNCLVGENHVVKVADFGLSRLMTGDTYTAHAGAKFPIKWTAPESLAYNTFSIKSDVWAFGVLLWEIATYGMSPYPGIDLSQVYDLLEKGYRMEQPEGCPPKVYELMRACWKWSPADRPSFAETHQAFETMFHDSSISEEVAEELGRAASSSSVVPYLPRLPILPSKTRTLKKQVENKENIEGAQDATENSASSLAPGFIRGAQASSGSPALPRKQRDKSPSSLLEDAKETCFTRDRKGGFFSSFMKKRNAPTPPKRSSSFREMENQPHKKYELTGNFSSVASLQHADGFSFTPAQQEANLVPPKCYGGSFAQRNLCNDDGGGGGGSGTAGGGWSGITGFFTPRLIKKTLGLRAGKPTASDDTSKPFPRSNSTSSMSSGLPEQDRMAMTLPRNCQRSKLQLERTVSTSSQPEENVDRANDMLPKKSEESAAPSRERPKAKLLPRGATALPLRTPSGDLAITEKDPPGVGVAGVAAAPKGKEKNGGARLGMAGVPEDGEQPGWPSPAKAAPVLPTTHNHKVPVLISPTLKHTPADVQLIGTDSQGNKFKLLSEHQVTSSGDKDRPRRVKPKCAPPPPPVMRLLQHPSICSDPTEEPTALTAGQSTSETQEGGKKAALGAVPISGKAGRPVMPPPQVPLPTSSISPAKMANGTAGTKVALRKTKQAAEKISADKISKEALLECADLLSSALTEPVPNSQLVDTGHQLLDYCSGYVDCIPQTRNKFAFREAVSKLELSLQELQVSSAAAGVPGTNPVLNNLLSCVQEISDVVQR
UniProt P02454, sequence (whole entry, looked up): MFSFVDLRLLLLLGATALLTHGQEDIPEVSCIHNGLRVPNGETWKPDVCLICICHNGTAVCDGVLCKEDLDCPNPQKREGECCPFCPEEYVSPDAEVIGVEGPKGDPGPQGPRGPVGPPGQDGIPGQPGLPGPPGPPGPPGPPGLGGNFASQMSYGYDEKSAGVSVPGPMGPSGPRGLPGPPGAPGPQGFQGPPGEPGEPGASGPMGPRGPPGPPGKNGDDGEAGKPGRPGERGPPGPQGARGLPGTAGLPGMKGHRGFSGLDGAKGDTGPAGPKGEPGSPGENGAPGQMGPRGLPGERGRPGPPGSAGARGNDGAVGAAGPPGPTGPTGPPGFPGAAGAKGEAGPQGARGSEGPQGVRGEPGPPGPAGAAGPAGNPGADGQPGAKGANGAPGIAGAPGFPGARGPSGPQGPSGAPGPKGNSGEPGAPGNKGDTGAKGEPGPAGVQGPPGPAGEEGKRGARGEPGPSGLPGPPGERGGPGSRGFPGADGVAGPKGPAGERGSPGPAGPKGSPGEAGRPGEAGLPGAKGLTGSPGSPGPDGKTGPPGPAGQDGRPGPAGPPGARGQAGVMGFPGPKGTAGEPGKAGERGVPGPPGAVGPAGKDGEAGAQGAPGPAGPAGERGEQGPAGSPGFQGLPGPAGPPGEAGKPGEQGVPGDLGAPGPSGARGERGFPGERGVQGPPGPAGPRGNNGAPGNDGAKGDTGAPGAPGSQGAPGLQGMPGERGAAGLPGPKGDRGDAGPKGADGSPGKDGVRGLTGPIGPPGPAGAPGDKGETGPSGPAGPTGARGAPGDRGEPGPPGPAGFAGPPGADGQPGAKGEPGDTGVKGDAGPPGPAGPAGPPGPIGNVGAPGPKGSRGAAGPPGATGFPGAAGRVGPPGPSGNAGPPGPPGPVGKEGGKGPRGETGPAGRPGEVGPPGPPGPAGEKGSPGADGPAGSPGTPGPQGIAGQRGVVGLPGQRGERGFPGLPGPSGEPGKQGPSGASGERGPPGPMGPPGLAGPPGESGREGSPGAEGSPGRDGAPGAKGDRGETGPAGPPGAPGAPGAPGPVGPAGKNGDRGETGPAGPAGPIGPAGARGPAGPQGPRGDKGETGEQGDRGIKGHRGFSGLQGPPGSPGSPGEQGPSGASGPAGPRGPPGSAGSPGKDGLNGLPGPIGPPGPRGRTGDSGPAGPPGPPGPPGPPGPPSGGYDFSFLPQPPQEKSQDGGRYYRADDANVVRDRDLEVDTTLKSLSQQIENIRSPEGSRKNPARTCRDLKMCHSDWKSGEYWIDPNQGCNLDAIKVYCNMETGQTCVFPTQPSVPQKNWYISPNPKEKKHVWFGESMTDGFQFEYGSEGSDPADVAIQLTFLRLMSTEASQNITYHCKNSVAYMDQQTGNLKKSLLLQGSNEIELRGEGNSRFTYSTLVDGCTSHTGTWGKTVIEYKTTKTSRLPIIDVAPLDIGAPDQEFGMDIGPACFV
UniProt Q07817, sequence (whole entry, looked up): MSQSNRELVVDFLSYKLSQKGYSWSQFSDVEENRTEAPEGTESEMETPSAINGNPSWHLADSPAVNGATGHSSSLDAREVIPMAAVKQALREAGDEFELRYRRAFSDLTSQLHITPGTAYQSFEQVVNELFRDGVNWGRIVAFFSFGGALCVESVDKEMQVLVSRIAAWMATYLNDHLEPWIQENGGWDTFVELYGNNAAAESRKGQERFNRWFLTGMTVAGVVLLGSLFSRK
UniProt P45974, sequence (whole entry, looked up): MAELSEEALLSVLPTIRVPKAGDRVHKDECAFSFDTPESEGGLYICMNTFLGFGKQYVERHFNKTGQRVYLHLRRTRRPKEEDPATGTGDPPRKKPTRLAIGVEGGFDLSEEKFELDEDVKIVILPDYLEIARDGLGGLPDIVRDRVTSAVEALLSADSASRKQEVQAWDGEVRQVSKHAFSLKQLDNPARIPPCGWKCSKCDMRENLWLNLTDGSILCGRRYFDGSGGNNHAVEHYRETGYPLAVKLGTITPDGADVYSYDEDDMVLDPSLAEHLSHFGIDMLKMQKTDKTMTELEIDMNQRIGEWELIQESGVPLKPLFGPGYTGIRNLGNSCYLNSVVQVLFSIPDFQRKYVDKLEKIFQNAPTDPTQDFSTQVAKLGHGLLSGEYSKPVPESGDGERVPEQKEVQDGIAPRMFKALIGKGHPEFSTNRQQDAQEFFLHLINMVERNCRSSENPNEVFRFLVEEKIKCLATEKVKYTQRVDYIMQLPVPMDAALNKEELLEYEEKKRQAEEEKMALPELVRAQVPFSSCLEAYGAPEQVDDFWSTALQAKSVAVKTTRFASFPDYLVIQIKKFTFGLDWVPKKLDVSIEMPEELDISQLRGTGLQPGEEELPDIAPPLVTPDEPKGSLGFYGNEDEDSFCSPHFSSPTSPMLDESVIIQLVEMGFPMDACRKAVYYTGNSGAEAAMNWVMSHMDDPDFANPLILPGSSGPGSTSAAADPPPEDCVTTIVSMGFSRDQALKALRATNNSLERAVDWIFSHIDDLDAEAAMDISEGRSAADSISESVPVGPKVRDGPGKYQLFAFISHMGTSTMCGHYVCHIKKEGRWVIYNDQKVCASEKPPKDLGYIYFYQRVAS
UniProt Q9UNU6, sequence (whole entry, looked up): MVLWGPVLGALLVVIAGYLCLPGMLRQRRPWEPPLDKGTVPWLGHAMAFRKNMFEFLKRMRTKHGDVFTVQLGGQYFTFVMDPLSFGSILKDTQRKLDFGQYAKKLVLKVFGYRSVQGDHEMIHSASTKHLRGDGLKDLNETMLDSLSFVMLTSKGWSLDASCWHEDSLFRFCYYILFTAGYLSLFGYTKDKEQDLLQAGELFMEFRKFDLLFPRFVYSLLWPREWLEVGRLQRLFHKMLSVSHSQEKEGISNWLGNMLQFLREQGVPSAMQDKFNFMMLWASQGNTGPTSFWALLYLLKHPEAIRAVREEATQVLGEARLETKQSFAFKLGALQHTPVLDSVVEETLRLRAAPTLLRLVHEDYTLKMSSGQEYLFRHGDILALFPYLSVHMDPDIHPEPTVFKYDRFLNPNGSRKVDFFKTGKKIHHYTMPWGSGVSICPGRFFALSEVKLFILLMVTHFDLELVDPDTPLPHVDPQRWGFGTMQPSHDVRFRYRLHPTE
UniProt P02786, sequence (whole entry, looked up): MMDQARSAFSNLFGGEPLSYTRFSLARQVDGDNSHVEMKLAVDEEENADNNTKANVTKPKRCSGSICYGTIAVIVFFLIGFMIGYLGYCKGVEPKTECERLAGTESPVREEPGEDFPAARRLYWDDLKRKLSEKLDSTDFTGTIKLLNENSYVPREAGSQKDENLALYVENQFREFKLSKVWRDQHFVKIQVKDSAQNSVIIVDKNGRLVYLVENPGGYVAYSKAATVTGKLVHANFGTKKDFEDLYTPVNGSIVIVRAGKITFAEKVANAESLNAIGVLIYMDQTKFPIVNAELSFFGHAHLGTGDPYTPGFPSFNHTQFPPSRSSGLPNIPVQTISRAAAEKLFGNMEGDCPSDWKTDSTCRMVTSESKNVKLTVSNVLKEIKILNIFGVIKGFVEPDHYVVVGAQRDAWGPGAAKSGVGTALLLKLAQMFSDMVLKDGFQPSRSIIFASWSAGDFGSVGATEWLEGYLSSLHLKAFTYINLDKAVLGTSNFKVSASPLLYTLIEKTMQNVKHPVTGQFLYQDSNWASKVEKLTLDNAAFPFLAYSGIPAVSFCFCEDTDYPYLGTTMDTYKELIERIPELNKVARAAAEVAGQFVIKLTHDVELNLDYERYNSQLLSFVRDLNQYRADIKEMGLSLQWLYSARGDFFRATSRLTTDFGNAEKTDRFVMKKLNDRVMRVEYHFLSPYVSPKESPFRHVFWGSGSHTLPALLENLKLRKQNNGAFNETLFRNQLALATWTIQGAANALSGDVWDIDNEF

The Kd of `CC(C)C[C@H](NC(=O)CNC(=O)[C@@H](NC(=O)[C@@H](NC(=O)[C@H](CCC(N)=O)NC(=O)[C@H](CCC(N)=O)NC(=O)[C@H](CCCNC(=N)N)NC(=O)[C@H](CCCCN)NC(=O)[C@@H](NC(=O)CNC(=O)[C@H](CCCCN)NC(=O)CNC(=O)[C@H](Cc1c[nH]cn1)NC(=O)[C@H](CC(C)C)NC(=O)[C@H](CC(C)C)NC(=O)[C@H](Cc1c[nH]cn1)NC(=O)[C@H](Cc1c[nH]cn1)NC(=O)[C@H](CC(C)C)NC(=O)[C@H](CC(C)C)NC(=O)[C@H](Cc1c[nH]cn1)NC(=O)[C@H](Cc1c[nH]c2ccccc12)NC(=O)[C@H](CC(C)C)NC(=O)[C@H](CC(C)C)NC(=O)CNC(=O)[C@@H](NC(=O)[C@@H](NC(=O)[C@H](CCC(N)=O)NC(=O)[C@H](CCC(N)=O)NC(=O)[C@H](CCCNC(=N)N)NC(=O)[C@H](CCCCN)NC(=O)[C@@H](N)[C@@H](C)O)C(C)C)C(C)C)[C@@H](C)O)C(C)C)C(C)C)C(=O)N[C@@H](CC(C)C)C(=O)N[C@@H](Cc1c[nH]c2ccccc12)C(=O)N[C@@H](Cc1c[nH]cn1)C(=O)N[C@@H](CC(C)C)C(=O)N[C@@H](CC(C)C)C(=O)N[C@@H](Cc1c[nH]cn1)C(=O)N[C@@H](Cc1c[nH]cn1)C(=O)N[C@@H](CC(C)C)C(=O)N[C@@H](CC(C)C)C(=O)N[C@@H](Cc1c[nH]cn1)C(=O)O` is reported as 0.352 µM (Col1a1/Col1a2 (Rattus norvegicus, UniProt P02454+P02466); ITC; pH 7.4, 25 °C, together with: collagen 10 µM).
`Nc1ncnc2c1ncn2[C@@H]1O[C@H](CN(CC[C@H](N)C(=O)O)Cc2cn(CCNC(=O)c3ccc4c(c3)C(=O)OC43c4ccc(O)cc4Oc4cc(O)ccc43)nn2)[C@@H](O)[C@H]1O` has a Kd of 0.61 µM (Genome polyprotein, methyltransferase domain (pol, Dengue virus type 3, UniProt Q6YMS4); binding; dengue virus 3).
The Kd of `Nc1ncnc2c1ncn2[C@@H]1O[C@H](COP(=O)(O)OP(=O)(O)OP(=O)(O)O)[C@@H](O)[C@H]1O` is reported as 5.6 ± 0.6 µM (matB (Rhodopseudomonas palustris, UniProt Q6ND88, C106A/K488A/Q457C/R286C); binding; pH 7.5, 100 mM NaCl).
`CC(=O)N[C@H]1[C@@H](O[C@H]2[C@@H](O)[C@@H](CO)OC(O)[C@@H]2O)O[C@H](CO)[C@H](O)[C@@H]1O` (stereo partly drawn) has a Kd of 0.014 ± 0.004 µM (Vicia villosa lectin; binding; 2 h).
The Kd of `O=C(O)CNC(=O)c1cccnc1` is reported as over 1000 µM (Ubiquitin carboxyl-terminal hydrolase 5, ZnF-UBD domain (USP5, Homo sapiens, UniProt P45974)).
`N=C(N)NCCC[C@H](N)C(=O)O` gave a Kd of 3.5e-05 ± 1.2e-05 µM (uncharacterized protein (Pelagibacter ubique, UniProt Q4FLC2); binding, competition ITC).
With `C[C@H](NC(=O)[C@@H](NC(=O)[C@H](CO)NC(=O)[C@H](Cc1c[nH]cn1)NC(=O)[C@@H]1CCCN1C(=O)[C@H](CC(=O)O)NC(=O)[C@H](CCC(N)=O)NC(=O)[C@H](Cc1ccc(OP(=O)(O)O)cc1)NC(=O)[C@H](Cc1c[nH]cn1)NC(=O)[C@@H]1CCCN1C(=O)[C@H](CC(=O)O)NC(=O)[C@H](CCCNC(=N)N)NC(=O)[C@H](CO)NC(=O)[C@@H]1CCCN1C(=O)[C@H](C)NC(=O)[C@@H]1CCCN1C(=O)[C@H](CC(N)=O)NC(=O)c1ccc2c(c1)C(=O)OC21c2ccc(N(C)C)cc2Oc2cc(N(C)C)ccc21)[C@@H](C)O)C(=O)N[C@@H](CC(=O)O)C(=O)O` the Kd was 0.074 µM (ABL2 SH2 domain; binding).
`CC(=O)N[C@H]1[C@@H](OC[C@H](NC(=O)[C@H](CO)NC(C)=O)C(=O)N[C@@H](CO)C(=O)NCC(=O)O)O[C@H](CO)[C@H](O)[C@@H]1O` has a Kd of 0.054 ± 0.031 µM (LE1 (Glycine max, UniProt P05046); glycan microarray; 4 glycans per BSA).
`Nc1ncnc2c1ncn2[C@@H]1O[C@H](COP(=O)(O)O)[C@@H](OP(=O)(O)O)[C@H]1O` gave a Kd of 800 µM (Thermonuclease, denatured (nuc, Staphylococcus aureus, UniProt P00644)).
`CC[C@H](C)[C@H](NC(=O)c1ccc2c(c1)C(=O)OC21c2ccc(N(C)C)cc2Oc2cc(N(C)C)ccc21)C(=O)N[C@@H](CCC(=O)O)C(=O)N[C@@H](CO)C(=O)N[C@@H](CO)C(=O)N[C@@H](CC(N)=O)C(=O)N[C@@H](Cc1ccc(O)cc1)C(=O)N[C@@H](CCSC)C(=O)N[C@@H](C)C(=O)N1CCC[C@H]1C(=O)N[C@@H](Cc1ccc(OP(=O)(O)O)cc1)C(=O)N[C@@H](CC(=O)O)C(=O)N[C@@H](CC(N)=O)C(=O)N[C@@H](Cc1ccc(O)cc1)C(=O)N[C@H](C(=O)N1CCC[C@H]1C(=O)N[C@@H](CO)C(=O)N[C@@H](C)C(=O)N[C@@H](CC(=O)O)C(=O)O)C(C)C` has a Kd of 1.2 µM (Tyrosine-protein kinase ITK/TSK, SH2 domain (ITK, Homo sapiens, UniProt Q08881); binding).
`CC(=O)N[C@H]1[C@@H](O[C@H](C)[C@H](NC(C)=O)C(=O)N[C@H](C(=O)N[C@H](C(=O)NCC(=O)O)[C@@H](C)O[C@H]2O[C@H](CO)[C@H](O)[C@H](O)[C@H]2NC(C)=O)[C@@H](C)O[C@H]2O[C@H](CO)[C@H](O)[C@H](O)[C@H]2NC(C)=O)O[C@H](CO)[C@H](O)[C@@H]1O` gave a Kd of 0.0003 ± 0.0001 µM (Vicia villosa lectin; glycan microarray; 20 glycans per BSA).
`CCCC1COC(Cn2cncn2)(c2ccc(Cl)cc2Cl)O1` (stereo not drawn) has a Kd of 64.2 µM (7-alpha-hydroxycholest-4-en-3-one 12-alpha-hydroxylase (Homo sapiens, UniProt Q9UNU6); binding; 20 min, pH 7.4).
The Kd of `C[C@H]1[C@H](NC(=O)/C(=N\OC(C)(C)C(=O)O)c2csc(N)n2)C(=O)N1S(=O)(=O)O` is reported as 62 µM (blaUOE-1 (Escherichia coli, UniProt Q9EXV5); binding, surface plasmon resonance).
`CC(C)C[C@H](NC(=O)[C@H](Cc1ccc(OP(=O)(O)O)cc1)NC(=O)[C@H](CCC(=O)O)NC(=O)[C@@H]1CCCN1C(=O)[C@H](CC(N)=O)NC(=O)CNC(=O)[C@@H](NC(=O)[C@H](C)NC(=O)[C@@H](NC(=O)[C@H](CO)NC(=O)[C@H](Cc1c[nH]cn1)NC(=O)c1ccc2c(c1)C(=O)OC21c2ccc(N(C)C)cc2Oc2cc(N(C)C)ccc21)[C@@H](C)O)C(C)C)C(=O)N[C@@H](CC(N)=O)C(=O)N[C@H](C(=O)N[C@H](C(=O)N[C@@H](CCC(N)=O)C(=O)N1CCC[C@H]1C(=O)N[C@H](C(=O)N[C@@H](CC(=O)O)C(=O)O)[C@@H](C)O)C(C)C)[C@@H](C)O` has a Kd of 0.373 µM (Guanine nucleotide exchange factor VAV2, SH2 domain (VAV2, Homo sapiens, UniProt P52735); binding).
Under Kd, `CC[C@H](C)[C@H](NC(=O)[C@H](CNC(=O)CCl)NC(C)=O)C(=O)N[C@@H](C)C(=O)N[C@@H](CCC(N)=O)C(=O)N[C@@H](CCC(=O)O)C(=O)N[C@@H](CC(C)C)C(=O)N[C@@H](CCCNC(=N)N)C(=O)N[C@@]1(C)CCC/C=C\CCC[C@@](C)(C(=O)N[C@@H](Cc2ccccc2)C(=O)N[C@@H](CC(N)=O)C(=O)N[C@@H](C)C(=O)N[C@@H](Cc2ccc(O)cc2)C(=O)N[C@@H](Cc2ccc(O)cc2)C(=O)N[C@@H](C)C(=O)N[C@@H](CCCNC(=N)N)C(=O)N[C@@H](CCCNC(=N)N)C(N)=O)NC(=O)[C@H](CC(=O)O)NC(=O)CNC(=O)[C@H]([C@@H](C)CC)NC1=O` is recorded as “no binding” (BCL2L1 (Homo sapiens, UniProt Q07817); isothermal titration calorimetry; 25 °C, 10% DMSO).
For `CC[C@H](C)[C@H](NC(=O)[C@H](CCC(N)=O)NC(=O)[C@H](Cc1c[nH]cn1)NC(=O)c1ccc2c(c1)C(=O)OC21c2ccc(N(C)C)cc2Oc2cc(N(C)C)ccc21)C(=O)N[C@@H](CO)C(=O)N[C@@H](CC(C)C)C(=O)N[C@@H](CC(=O)O)C(=O)N[C@@H](CC(N)=O)C(=O)N1CCC[C@H]1C(=O)N[C@@H](CC(=O)O)C(=O)N[C@@H](Cc1ccc(OP(=O)(O)O)cc1)C(=O)N[C@@H](CCC(N)=O)C(=O)N[C@@H](CCC(N)=O)C(=O)N[C@@H](CC(=O)O)C(=O)N[C@@H](Cc1ccccc1)C(=O)N[C@@H](Cc1ccccc1)C(=O)N1CCC[C@H]1C(=O)N[C@@H](CCCCN)C(=O)N[C@@H](CC(=O)O)C(=O)O`, the Kd was 0.49 µM (ABL2 SH2 domain; binding).
The Kd of `CCCC(=O)CC(=O)N[C@H]1CCOC1=O` is reported as 0.233 µM (qscR, ligand-binding domain (Pseudomonas aeruginosa, UniProt G3XD77); ligand binding, FRET displacement; ligand-binding domain).
`CSCC[C@H](NC(=O)[C@H](CC(=O)O)NC(=O)c1ccc2c(c1)C(=O)OC21c2ccc(N(C)C)cc2Oc2cc(N(C)C)ccc21)C(=O)N[C@@H](CO)C(=O)N[C@@H](CCCCN)C(=O)N[C@@H](CC(=O)O)C(=O)N[C@@H](CCC(=O)O)C(=O)N[C@@H](CO)C(=O)N[C@H](C(=O)N[C@@H](CC(=O)O)C(=O)N[C@@H](Cc1ccc(OP(=O)(O)O)cc1)C(=O)N[C@H](C(=O)N1CCC[C@H]1C(=O)N[C@@H](CCSC)C(=O)N[C@@H](CC(C)C)C(=O)N[C@@H](CC(=O)O)C(=O)N[C@@H](CCSC)C(=O)N[C@@H](CCCCN)C(=O)N[C@@H](CC(=O)O)C(=O)O)C(C)C)C(C)C` gave a Kd of 0.105 µM (ABL2 SH2 domain; binding).
With `CC(C)C[C@H](NC(=O)[C@H](CO)NC(=O)[C@H](CO)NC(=O)CNC(=O)[C@@H]1CCCN1C(=O)[C@H](Cc1ccc(O)cc1)NC(=O)[C@H](CC(C)C)NC(=O)[C@H](CO)NC(=O)[C@H](CS)NC(=O)[C@H](CC(C)C)NC(=O)[C@@H](N)CC(C)C)C(=O)O` the Kd was 5.9 µM (Epidermal growth factor receptor, extracellular domain (EGFR, Homo sapiens, UniProt P00533); binding, second site, surface plasmon resonance; immobilised soluble EGFR; 25 °C, model, binding, one to two).
`CC[C@H](C)[C@H](NC(=O)CNC(=O)[C@H](CC(=O)O)NC(=O)[C@H](Cc1ccc(OP(=O)(O)O)cc1)NC(=O)[C@@H]1CCCN1C(=O)[C@H](CCCCN)NC(=O)[C@H](CO)NC(=O)CNC(=O)[C@H](Cc1ccccc1)NC(=O)[C@@H](NC(=O)[C@H](CCSC)NC(=O)[C@H](CC(C)C)NC(=O)[C@H](CCC(=O)O)NC(=O)c1ccc2c(c1)C(=O)OC21c2ccc(N(C)C)cc2Oc2cc(N(C)C)ccc21)[C@@H](C)O)C(=O)N1CCC[C@H]1C(=O)N[C@@H](C)C(=O)N[C@@H](CO)C(=O)N[C@@H](CCC(=O)O)C(=O)N[C@@H](CC(=O)O)C(=O)O` gave a Kd of 0.177 µM (ABL2 SH2 domain; binding).
`CC[C@@H](C)[C@@H](NC(=O)[C@@H](Cc1ccc(O)cc1)NC(=O)[C@H]1CCCN1C(=O)[C@@H](CCCNC(=N)N)NC(=O)[C@H](N)Cc1c[nH]cn1)C(=O)N[C@H](C)C(=O)N[C@H](Cc1c[nH]cn1)C(=O)N[C@H](CCCNC(=N)N)C(=O)N[C@@H](C(=O)N[C@H](Cc1ccc(O)cc1)C(=O)N[C@H](CO)C(=O)N[C@H](Cc1ccccc1)C(N)=O)C(C)C` gave a Kd of 9.1 ± 3.2 µM (TFRC (Homo sapiens, UniProt P02786); microscale thermophoresis; 6 h, OFP-tagged protein).
